# Experimental data gathered from unrelated publications.
# Parts stem from different laboratories: compare values within a part only.

# Study 1 — method: RNA Bind-n-Seq; form: RNA; sample: in vitro; tested at: 200 nM; notes: whole 134-nt RNA, ends assumed; added: 150 mM KCl; reference: input library; direction: higher = stronger binding
# Target: Ras GTPase-activating protein-binding protein 1, full length (G3BP1, Homo sapiens, UniProt Q13283)
# Chain of UniProt Q13283 (whole entry, looked up): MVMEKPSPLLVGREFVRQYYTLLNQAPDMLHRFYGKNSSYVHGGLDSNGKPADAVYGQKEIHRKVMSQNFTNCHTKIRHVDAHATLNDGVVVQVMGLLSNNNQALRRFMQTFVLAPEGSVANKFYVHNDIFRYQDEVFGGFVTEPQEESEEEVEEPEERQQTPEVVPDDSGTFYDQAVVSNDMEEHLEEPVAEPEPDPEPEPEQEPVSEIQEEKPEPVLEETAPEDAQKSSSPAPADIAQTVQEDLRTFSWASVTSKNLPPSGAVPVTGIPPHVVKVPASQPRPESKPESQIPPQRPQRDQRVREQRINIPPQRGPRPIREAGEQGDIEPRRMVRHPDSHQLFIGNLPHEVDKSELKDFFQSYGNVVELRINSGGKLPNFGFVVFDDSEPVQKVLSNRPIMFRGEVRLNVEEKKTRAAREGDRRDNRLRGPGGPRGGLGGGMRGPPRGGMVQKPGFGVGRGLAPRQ
# Constant ends, left off below: GGGAGUUCUACAGUCCGACGAUC … UGGAAUUCUCGGGUGUCAAGG
Strand,log2 enrichment
GCAGGAAGUAAAAAGAAAUGGAAAUGCUUCGGAUAGUGGCAGGGGUGGGGGUUGCUAAGGAAAGGGUGGGAUGGGAGUGGGUAAAGAGUU,0.984
UGGGAGGUGGAUUUUGUUUAUUUUUUUAGCUCAUUUCCAGGGGUGGGAAUUUUUUUUUAACAUGUGUCAUGAAUAAAGUUGUUUUUGAAA,0.144
UGGGAGGUGGAUUUUGUUUAUUUUUUUAGCUCAUUUCCAGGGGUGGGUAUUUUUUUUUAAUAUGUGUCAUGAAUAAAGUUGUUUUUGAAA,0.401
UGGCCCUGGUGGCAUGCGGGGAGGAAGAGGUGGCCUCAUCGAUCGUGGUGGUCCCGGUGGAAUGUUCAGAGGUGGCCGUGGUGGAGACAG,0.205
CUCAAGUCCUGUGCUACACAUCGUAUGUACCGAAUCGGAGGUGGAAAAAAAGGAAAGUAUUAUGUUACGCCGUUCGGAUCUGCACUUCCA,-0.728
CUGUGCUACACAUCGUAUGUACCGAAUCGGGGCCCCCCCGGGGCCCCCCCGGCCCCCCCGGAAAGUAUUAUGUUACGCCGUUCGGAUCUG,-0.493
GUCCUGUGCUACACAUCGUAUGUACCGAAUCGGGUUUUUUUGGGAGGGUUUUUUUGGGAAAGUAUUAUGUUACGCCGUUCGGAUCUGCAC,-0.273
UGGCCUUAUCACUCCUGGAGGCUUUUCAUCAGUGCCUGCUGGAAUGGAGACCCCUGAACUCAUUGAGCUGAGGAAGAAGAAGAUUGAGGA,-1.26
GUCCUGUGCUACACAUCGUAUGUACCGAAUCGGGGAGGGGAAAGGGGAAAAAAAGGGGAAAGUAUUAUGUUACGCCGUUCGGAUCUGCAC,0.428
UCAAGUCCUGUGCUACACAUCGUAUGUACCGAAUCGGAAAGGAAAGGGGAAAGGGAAAGUAUUAUGUUACGCCGUUCGGAUCUGCACUUC,-0.832
UAAUUGUGAUCUACAUUUUAAAAUAUCAAGAGAUCGUCUCAGUGCUUCUUCCCUUACAAUGGAGAGUUUUGCUUUUCUUUGGGCUGGAGG,-0.568
AGUCCUGUGCUACACAUCGUAUGUACCGAAUCGGUUUUUUUGGUUUGGAAAAAAAGGAAAGUAUUAUGUUACGCCGUUCGGAUCUGCACU,-1.61
UACAGACAACACGCACCCACACAGACACAGAGGGAAGGGGUUGGGAUGGGGACAGGGUGCACAGCAGGGCGGGGUAGGACCCCAGCCCCU,1.83
ACCAUGCAGGUGGGCAUCUUUGGGAAGUGGGGCAAGGGGGGGAUAGGGAGGGGGGUAACACUUUGGGAACAGGUGGUCCCAGGUCGUUUG,1.51

# Study 2 — method: aptamer microarray, sandwich; form: DNA with 2'F-ANA; sample: in vitro; tested at: 200 nM; added: Cy3 exosite-II aptamer, 400 nM; direction: higher = stronger binding; strand: GGTTGGTGTGGTTGG
# Target: Prothrombin, mature alpha-thrombin (F2, Homo sapiens, UniProt P00734)
# Notes: whole 15-mer aptamer, many near background
Modification,mean fluorescence intensity [a.u.]
2'F-ANA at 2 9 12 14 15,173
2'F-ANA at 1 3 4 6 7 8 10 12 13 15,70.9
2'F-ANA at 1 3 4 5 6 7 9 10 11,50.6
2'F-ANA at 1 2 3 4 6 7 13 14,56.5
2'F-ANA at 2 3 5 6 9 11 13,68.4
2'F-ANA at 1 2 4 5 6 10 11 14,48.4
2'F-ANA at 1 2 5 7 8 9 10 12 13,47.8
2'F-ANA at 1 2 5 6 7 8 11,53.4
2'F-ANA at 2 6 7 8 11 12 13 15,498
2'F-ANA at 1 2 4 5 8 9 11 12 13,64.5
2'F-ANA at 1 2 4 7,161
2'F-ANA at 3 4 7 8 9 11 12 14 15,345
2'F-ANA at 1 7 10 11 13 14 15,48.2
2'F-ANA at 4 6 7 8 9 11 12 14,94.3
2'F-ANA at 2 3 5 6 10 11,48.7
2'F-ANA at 1 4 5 6 12 14 15,47.1
2'F-ANA at 6 10 12 13 14 15,101

# Study 3 — method: RNA Bind-n-Seq; form: RNA; sample: in vitro; tested at: 365 nM; reference: no-protein control; direction: higher = stronger binding
# Target: RNA binding protein fox-1 homolog 2, RRM domain, GST-SBP tag (RBFOX2, Homo sapiens, UniProt O43251-10, residues 100-194)
# Notes: natural RNA segment, single round, ends assumed
# Constant ends, left off below: GGGAGUUCUACAGUCCGACGAUC … UGGAAUUCUCGGGUGCCAA
# Construct (chain): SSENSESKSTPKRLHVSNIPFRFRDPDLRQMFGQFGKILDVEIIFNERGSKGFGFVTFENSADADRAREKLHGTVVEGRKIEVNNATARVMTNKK
Strand,RBNS enrichment (R)
AGCACAAAGUGCAUCUCAGAGAUGUGCUAGUGGCUUAUCCUGGGCUUGGCCUGCAACAUGGGAGGCUUGGGACGGGGGUCUUGGACCUGCUCAUGACCCCUGAGCAGCCU,0.344
UCUAGUGGGCAGGGUGAGUGAUGGCUGAAUCGCUUUGUCCACCUGUGUGUGUGUCUUAGUGGAUCUUUACUUACCCAGGAGCAGGGCUAUGCUUACUCCUUGAAGCUCCU,0.652
UUUGCUCUUUUUGUUUUUGUUUGUCACCCCUCGAUAAAGAAAGUAUAUUCAUUUGUGUUGCUGGUUCAACCUGCUCUGUCCUGCCCACUCUUUACUUCUGGCUGUUCAAG,1.08
AGCAGGCAUGUUGAAGAGUUGAGUGAUCACGCUGGAGAUGAAGGGUUGGACAUGGAUUGACUGGGAAAAGGCCUGGGUCCAUUGGAGUAAAGAUAACCUAGUCGAUUGAA,17
UGCUGCAGGGAUGGAGUGGCGUUUUCUUAUUGCUGUAUGUAUUGUACAUAGUGGAGUAGUUAGUUACCUGAUAACAGUCUUGUUAUUUGGGUCUCUUAGACCUUACCUCU,0.364
GAGAGGGCAGAGUACAAUGGGGUGAGGUCCCAGGCGCAUGGAGCAAGGCUCCCUUUCUGGGGAAGCCUCGUGUUGGAGAUAGAGGCAGCAGGCCUGCGUUGCCAGGGAGU,3.9
GUAACCCGGGAGUGUUCCCAGGUGGCCUUAGAAAGCAAAGCUUGUAACUGGCAAGGGAUGAUGUCAGAUUCAGCCCAAGGUUCCUCCUCUCCUACCAAGCAGGAGGCCAG,1.32
UCAGGACAAGGAGGCCUCCCUGGGAGAGGGGGCCUUUCUCCCACCAUCACCGCCUGUGUCCUUCAGGGGCUGCUGGAGGGCAGCCCAAAGCCAGGGGCCCACCCCGCCCC,0.534
CUAUAACCUUCCCCUUUUACCUCAAUUAUUUGAUAAUUUCCCCACCCAGCCCCUCAUCCACCUGGAAUUUGAGGAGGAGAAAUGAAAAAACAGUGUGUCACUGGUGUCAC,0.797
GGCCCCUGGAAAGCAGGGGUUACCGUUACGAGGCUGUGGUCCGGGGCAAGCCAAGUACGAAGCAGCAGCCAUCGCGGGCUGCAUCAUCCCCCAGCCAGGUCCCCACCAGG,0.244
GUGGUCUUCUUGCACAGUGUGUGGCAGUUGAGAAAGCCUAGAAAAGGUGCCCAUUUGACCACUGUGAGGCAAAUAGAAACAGUCCCUAAGGGUCCUAUGUGGCUGUGUUG,0.957
CUCCCUGUAUGUUAAACCCUUGACCAGUUUACUCGUUUCUAUCCUGGAAGAUUUUUAACAAAGGGAAAAACCAACAGCAAUAAGUCAUUGGUGAGCAGCUAACUCGCUCA,0.355

# Study 4 — method: RNA Bind-n-Seq; form: RNA; sample: in vitro; tested at: not given; reference: input RNA pool; direction: higher = stronger binding
# Target: RING finger protein unkempt homolog, zinc fingers 1-6, GST-SBP tag (UNK, Homo sapiens, UniProt Q9C0B0, residues 30-357)
# Chain of UniProt Q9C0B0 (30-357, looked up): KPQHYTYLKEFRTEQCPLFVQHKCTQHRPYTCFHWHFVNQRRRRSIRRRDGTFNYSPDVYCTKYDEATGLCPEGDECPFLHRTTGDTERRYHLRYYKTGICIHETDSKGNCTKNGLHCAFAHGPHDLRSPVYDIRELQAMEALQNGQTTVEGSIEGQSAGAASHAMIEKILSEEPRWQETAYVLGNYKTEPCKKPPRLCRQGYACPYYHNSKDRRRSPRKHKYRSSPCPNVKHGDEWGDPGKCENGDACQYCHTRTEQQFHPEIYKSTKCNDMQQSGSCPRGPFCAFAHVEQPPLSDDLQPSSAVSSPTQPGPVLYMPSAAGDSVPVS
# Notes: RNA with constant flanks, human-mouse chimeric sites, ends assumed
# Constant ends, left off below: GGGAGUUCUACAGUCCGACGAUC … CAACAGAGGAUUGAGCAUCA
Strand,bound/input enrichment [ratio]
UACAUUUUAUUGUUGAGUUUCAUUUUCAUAUAUUCUUGUAGUGUCUGCUUGCCUGUGACUUCUGGUAAAAUAAAAUAAGCCUUUGAAAAUAUUUUAGCAUGGUAUUUAACAUUUUCUAAA,1.84
CAGGGCAUCAUCUCUCGUGCUGUUAGACACCUGUUCAAGAGUAUUGAUGAGAAAAAGACCUCAGCGAUUAAAAACGGGCUUCCUGCUCCUGAAUUCAAAGUGAAUGCCCAGUUCCUAGAG,0.176
GCACUUGGGAAUGUAAUCAGCGCCUUGGGGGACAAGAGCAAGAGAGCCACCCAUGUCCCUUACAGAGACUCUAAGCUGACAAGACUCUUGCAGGAUUCCCUUGGGGGUAACAGCCAAACC,0.136
CUUAAUGUUAAUAUUUUUAAAGGAAGCAAGCUAAAAUGUCUGCUUUUGGUACAACACGCAUUAAUAAAAGGUUAAGUUUUGUUUUCCACUGAAGUACUAUUUAACAUCUCAGAAAAAAAC,0.219
AUAUUUCAUAUUGCAAAGAUGUUUACAAGUAUUUUAAUUUAAGUUCAGUGAACUUUUUUGUAGCUGGGUUAAAUCUUUUUAUUUUUAUAUGGCCUUAUGGCAAAGAACACUGUAUUAUUU,1.09
CCACCAGGAUCCCAGAAACAUGACCCUUGCUGCCUACAAAGAGAAGAUGAAGGAGCUCCCACUAGUGUCCUUGUUCUGCUCCUGCUUCCUGGCCGAUCCCCUGAAUAAGUCGUCCUACAA,0.822
ACCUCCCCCUCCCGCCUCACCCCACCCCCGCUUUUUGAAAGUGUGUUGGCGUUUCUUUUCCUUCCCCAUACAAAGUGAUUACAGUUUCCCCCGCAAGGGUCUAUCGAUUCACCCUUCGGA,0.881
CCCCACAACCAUUUGCAGGUCUGGAACUGCACUCUCUUUAAAGUUUUACAUGUAUACAUUUUAGGGCUGUAGAUUUAUUUUCCUGGUUUUGUUUUUCAUUGCUGACUUUUGAGCACAGAA,1.69
ACCUCCCAGGCCUGGGACACCCCACCCCCGCUUUUUGGAAAGUUUUUGGCGUUUCUUUUCCUUCCCCAUACAAAGUGAUUACAGUUUCCCCCGCAAGUGGGGCUUGAAGGGCUUGACGGA,0.4
GCUGAAAAUGAAGAAGAGGCAGCUGAUGUCUGGUACAACCUGGGGCAUGUAGCUGUGGGAAUCGGAGAUACAAACUUGGCCCAUCAGUGCUUCAGGCUGGCCCUGGUCCACAACAACCAC,0.131
CUUAAUGUUAAUAUUUUUGAAUAAAUGAAGCUAAAAUGUCUGCUUUUGGUACAACACGCAUUAGCGAAAGGUUAAGUUUUGUUUUCCACUGAAGUACGUAAUACUUACUCAGAAAAAAAC,0.816

# For quick reference, copied from above (study 4):
Strand,bound/input enrichment [ratio]
GCACUUGGGAAUGUAAUCAGCGCCUUGGGGGACAAGAGCAAGAGAGCCACCCAUGUCCCUUACAGAGACUCUAAGCUGACAAGACUCUUGCAGGAUUCCCUUGGGGGUAACAGCCAAACC,0.136
CUUAAUGUUAAUAUUUUUAAAGGAAGCAAGCUAAAAUGUCUGCUUUUGGUACAACACGCAUUAAUAAAAGGUUAAGUUUUGUUUUCCACUGAAGUACUAUUUAACAUCUCAGAAAAAAAC,0.219
AUAUUUCAUAUUGCAAAGAUGUUUACAAGUAUUUUAAUUUAAGUUCAGUGAACUUUUUUGUAGCUGGGUUAAAUCUUUUUAUUUUUAUAUGGCCUUAUGGCAAAGAACACUGUAUUAUUU,1.09
CCACCAGGAUCCCAGAAACAUGACCCUUGCUGCCUACAAAGAGAAGAUGAAGGAGCUCCCACUAGUGUCCUUGUUCUGCUCCUGCUUCCUGGCCGAUCCCCUGAAUAAGUCGUCCUACAA,0.822
ACCUCCCCCUCCCGCCUCACCCCACCCCCGCUUUUUGAAAGUGUGUUGGCGUUUCUUUUCCUUCCCCAUACAAAGUGAUUACAGUUUCCCCCGCAAGGGUCUAUCGAUUCACCCUUCGGA,0.881
CCCCACAACCAUUUGCAGGUCUGGAACUGCACUCUCUUUAAAGUUUUACAUGUAUACAUUUUAGGGCUGUAGAUUUAUUUUCCUGGUUUUGUUUUUCAUUGCUGACUUUUGAGCACAGAA,1.69
ACCUCCCAGGCCUGGGACACCCCACCCCCGCUUUUUGGAAAGUUUUUGGCGUUUCUUUUCCUUCCCCAUACAAAGUGAUUACAGUUUCCCCCGCAAGUGGGGCUUGAAGGGCUUGACGGA,0.4
